Literature values, collected from citations in different studies.
Each numbered part shows a few of the values that one paper quotes.

Sample 1 — read-out: peptide-MHC binding; form: peptide
Target: HLA class I histocompatibility antigen, A alpha chain, allele A*69:01 (Homo sapiens, UniProt P04439)
`DAAAPLPPV` gave an IC50 of 0.001 µM.
For `FLGRIWPS`, the IC50 was > 5 µM.
With `DAAVVFPPV` the IC50 was 0.001 µM.

Single results of other studies
With ClC1=C(Cl)C2(Cl)C3C(Cl)C=CC3C1(Cl)C2(Cl)Cl (centres unmarked) the logD was 5.54 (pH 7.4).
For C=C[C@@H]1C[C@]1(NC(=O)[C@@H]1C[C@@H]2CN1C(=O)[C@H](C(C)(C)C)NC(=O)O[C@@H]1C[C@H]1CCCCCc1nc3ccc(OC)cc3nc1O2)C(=O)NS(=O)(=O)C1CC1, the IC50 was 66 µM (CYP2B6; inhibitor).
For ClC1=C(Cl)C2(Cl)C3C4CC(C5OC45)C3C1(Cl)C2(Cl)Cl (centres unmarked), the logD was 4.94 (pH 7.4).
For O=c1c(O)c(-c2ccc(O)c(O)c2)oc2cc(O)cc(O)c12, the IC50 was 2.62 µM (PRV; viral replication).
Under “duration of psychedelic effects”, CC(C)N(CCc1c[nH]c2cccc(O)c12)C(C)C is recorded as 2 to 3 h (human; concentration not given, anecdotal reports).

A few entries again (sample 1):
With `DAAVVFPPV` the IC50 was 0.001 µM.
